Published values gathered from unrelated publications.
Lines come from different studies, so protocols differ. pEC50, pIC50: −log10 of the molar value.
Organism: Human immunodeficiency virus 1

| SMILES | test | test system | setting | endpoint | value |
| --- | --- | --- | --- | --- | --- |
| Nc1nc(Nc2ccc(Cl)cc2)nn1S(=O)(=O)c1ccc2ccccc2c1 | viral replication, inhibitor, luciferase | TZM-bl, IIIB |  | pEC50 | 8.03 |
| Cc1cc(C)cc(C(=O)c2cc(C)ccc2OCCn2ccc(=O)[nH]c2=O)c1 | viral replication, inhibitor, luciferase | TZM-bl, IIIB |  | pEC50 | 7.26 |
| COc1ccccc1C(=O)Nc1ccccc1Sc1ccc(N)cc1 | viral replication | MT4 | 7 days | pIC50 | 4.40 |
| O=C(O)c1cc(O)c(O)c(O)c1 | viral replication, inhibitor | TZM-bl, BAL | 11.1 µM | inhibition | ~50% |
| O=C(c1cc(Cl)cc(Cl)c1)c1cc(Br)ccc1OCCn1ccc(=O)[nH]c1=O | viral replication, inhibitor, luciferase | TZM-bl, IIIB |  | pEC50 | 7.59 |
| COc1ccccc1C(=O)Nc1ccccc1Sc1ccc([N+](=O)[O-])cc1 | viral replication | MT4 | 7 days | pIC50 | 4.28 |
| COc1cc(-c2oc3cc(O)cc(O)c3c(=O)c2O)ccc1O | viral replication, inhibitor | TZM-bl, BAL | 11.1 µM | inhibition | > 50% |
| Cc1ccc(C)n1Cc1ccc(C(=O)O)cc1 | viral replication, inhibitor, ELISA | MT2, IIIB | 96 h | pEC50 | 4.81 |
| COc1ccccc1NS(=O)(=O)c1ccccc1Sc1ccc(N)cc1 | viral replication | MT4 | 7 days | pIC50 | < 4.00 |
| COc1ccc(-c2cn(C)c3nc(Cl)ccc23)cc1 | cell growth or viability, MTT | TZM-bl | 48 h | pIC50 | 4.10 |
| CC1=C(c2nc(-c3ccc(C#N)cc3)cs2)C(c2cc3ccccc3n2C)NC(=O)N1 (stereo not drawn) | viral replication | MAGI-CCR5, NL43 |  | IC90 | 5 µM |
| COc1ccccc1NS(=O)(=O)c1ccccc1Sc1ccc([N+](=O)[O-])cc1 | viral replication | MT4 | 7 days | pIC50 | < 4.00 |

A few entries again:
| SMILES | test | test system | setting | endpoint | value |
| --- | --- | --- | --- | --- | --- |
| COc1ccccc1NS(=O)(=O)c1ccccc1Sc1ccc([N+](=O)[O-])cc1 | viral replication | MT4 | 7 days | pIC50 | < 4.00 |
